# Values quoted from earlier work that unrelated publications cite.
# Compare with care: the assays were run in different laboratories. Numbers after ± are the reported error.
Compound,target or system,test,system,setting,quantity,value
N#Cc1cccc(-n2[se]c3ccccc3c2=O)c1,SARS-CoV-2 main protease,"enzyme activity, inhibitor",,,IC50,380 nM
COC1C2(O)C(=O)N3C=CC(C)(C)c4[nH]c5ccccc5c4C=C3C(=O)N2C23C(C)C(C)(C)N2c2ccccc2C13O (stereo not shown),"GABA-A receptor α1β2γ2, human",,,10 µM,activity,inactive
CCn1c(C)c(CC(=O)N[C@@H](Cc2ccccc2)C(=O)N(C)c2ccc(Cl)cc2)c2ccccc21,HIV-1 capsid hexamer wild type,,,,ΔTm,11.9 °C
COC(=O)c1c(CCl)cc(O)c(=O)c(O)c1C(=O)OC,HIV RNase H,enzyme activity,,,IC50,800 nM
COc1cc(C(=O)Nc2ccc(NC(=O)c3cc(OC)c(OC)c(OC)c3)cc2)cc(OC)c1OC,"DHFR, human",inhibitor,,,IC50,4800 nM
Cc1ccc([Se]c2c(O)cc(O)c3c(=O)c(O)c(-c4ccc(O)c(O)c4)oc23)cc1,SARS-CoV-2 main protease,"enzyme activity, inhibitor",,,IC50,11000 nM
C[C@H](NC(=O)CNC(=O)[C@@H]1CCCN1C(=O)[C@H](CO)NC(=O)CNC(=O)CN)C(=O)N[C@@H](CCCCN)C(=O)N[C@@H](CCCCN)C(=O)N[C@@H](CC(N)=O)C(=O)N[C@H](C(=O)N[C@@H](CCCCN)C(=O)N[C@@H](CO)C(=O)N[C@@H](C)C(=O)N[C@@H](CS)C(=O)NCC(=O)N[C@@H](CCCCN)C(=O)N[C@@H](C)C(=O)N[C@@H](CS)C(=O)N[C@@H](C)C(=O)N[C@@H](CS)C(=O)N[C@@H](Cc1c[nH]cn1)C(=O)O)[C@@H](C)O,Pseudomonas aeruginosa,,,,MIC,32 µM
CCn1c(C)c(CC(=O)N[C@@H](Cc2ccccc2)C(=O)N(C)c2cccc(Cl)c2)c2ccccc21,HIV-1 capsid hexamer wild type,,,,ΔTm,9.2 °C
CSCC[C@H](NC(=O)[C@H](Cc1ccccc1)NC(=O)CNC(=O)[C@@H](C)NC(=O)[C@@H](N)Cc1ccc(O)cc1)C(=O)N1CCC[C@H]1C(=O)N[C@@H](CC(C)C)C(=O)N[C@@H](Cc1c[nH]c2ccccc12)C(=O)NCc1cc(C(F)(F)F)cc(C(F)(F)F)c1,"mu opioid receptor, guinea pig",,guinea pig ileum,,IC50,490 ± 29 nM
Nc1ncnc2c1ncn2[C@@H]1O[C@H](CSCc2cccc(C(=O)O)c2)[C@@H](O)[C@H]1O,human GNMT,,,off-target,IC50,8.6 nM
CC(C)[C@H](NC(=O)[C@H](CCCNC(=N)N)NC(=O)[C@H](Cc1ccccc1)NC(=O)[C@H](CS)NC(=O)[C@@H](N)Cc1c[nH]c2ccccc12)C(=O)N[C@@H](CS)C(=O)N[C@@H](Cc1ccccc1)C(=O)N[C@@H](CCCCN)C(=O)NCC(=O)N[C@@H](Cc1ccccc1)C(=O)N[C@@H](CS)C(=O)N[C@@H](Cc1ccc(O)cc1)C(=O)N[C@@H](CCCNC(=N)N)C(=O)N[C@@H](Cc1ccccc1)C(=O)N[C@@H](CS)C(=O)O,Staphylococcus aureus,,,,MIC,> 128 µM
O=c1c2ccccc2[se]n1-c1cccc(C(F)(F)F)c1,SARS-CoV-2 main protease,"enzyme activity, inhibitor",,,IC50,2770 nM
CCn1c(C)c(CC(=O)N[C@@H](Cc2ccccc2)C(=O)N(C)c2cccc(F)c2)c2ccccc21,HIV-1 capsid hexamer wild type,,,,ΔTm,10.8 °C

# Some of these lines once more:
Compound,target or system,test,system,setting,quantity,value
CCn1c(C)c(CC(=O)N[C@@H](Cc2ccccc2)C(=O)N(C)c2cccc(Cl)c2)c2ccccc21,HIV-1 capsid hexamer wild type,,,,ΔTm,9.2 °C
